Assay results collected from several papers.
A part holds a random share of what one study measured. Positions count from the first letter of the parent shown.
Chain of UniProt Q13555 (whole entry, looked up): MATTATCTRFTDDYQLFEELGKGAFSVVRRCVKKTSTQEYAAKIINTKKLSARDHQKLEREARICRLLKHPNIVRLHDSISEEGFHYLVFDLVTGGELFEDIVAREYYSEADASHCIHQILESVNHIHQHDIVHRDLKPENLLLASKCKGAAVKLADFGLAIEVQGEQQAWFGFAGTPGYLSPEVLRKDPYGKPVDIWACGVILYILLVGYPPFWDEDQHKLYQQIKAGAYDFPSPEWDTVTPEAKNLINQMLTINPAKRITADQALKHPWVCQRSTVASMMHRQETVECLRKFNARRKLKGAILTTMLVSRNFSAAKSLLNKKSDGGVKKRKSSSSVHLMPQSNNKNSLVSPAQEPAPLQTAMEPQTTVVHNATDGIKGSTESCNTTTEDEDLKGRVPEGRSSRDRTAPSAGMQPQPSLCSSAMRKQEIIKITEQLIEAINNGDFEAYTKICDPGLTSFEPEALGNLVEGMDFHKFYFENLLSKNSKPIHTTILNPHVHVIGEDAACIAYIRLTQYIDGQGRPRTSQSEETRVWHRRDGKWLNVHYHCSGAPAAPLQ
Chain of UniProt Q8NEB9 (whole entry, looked up): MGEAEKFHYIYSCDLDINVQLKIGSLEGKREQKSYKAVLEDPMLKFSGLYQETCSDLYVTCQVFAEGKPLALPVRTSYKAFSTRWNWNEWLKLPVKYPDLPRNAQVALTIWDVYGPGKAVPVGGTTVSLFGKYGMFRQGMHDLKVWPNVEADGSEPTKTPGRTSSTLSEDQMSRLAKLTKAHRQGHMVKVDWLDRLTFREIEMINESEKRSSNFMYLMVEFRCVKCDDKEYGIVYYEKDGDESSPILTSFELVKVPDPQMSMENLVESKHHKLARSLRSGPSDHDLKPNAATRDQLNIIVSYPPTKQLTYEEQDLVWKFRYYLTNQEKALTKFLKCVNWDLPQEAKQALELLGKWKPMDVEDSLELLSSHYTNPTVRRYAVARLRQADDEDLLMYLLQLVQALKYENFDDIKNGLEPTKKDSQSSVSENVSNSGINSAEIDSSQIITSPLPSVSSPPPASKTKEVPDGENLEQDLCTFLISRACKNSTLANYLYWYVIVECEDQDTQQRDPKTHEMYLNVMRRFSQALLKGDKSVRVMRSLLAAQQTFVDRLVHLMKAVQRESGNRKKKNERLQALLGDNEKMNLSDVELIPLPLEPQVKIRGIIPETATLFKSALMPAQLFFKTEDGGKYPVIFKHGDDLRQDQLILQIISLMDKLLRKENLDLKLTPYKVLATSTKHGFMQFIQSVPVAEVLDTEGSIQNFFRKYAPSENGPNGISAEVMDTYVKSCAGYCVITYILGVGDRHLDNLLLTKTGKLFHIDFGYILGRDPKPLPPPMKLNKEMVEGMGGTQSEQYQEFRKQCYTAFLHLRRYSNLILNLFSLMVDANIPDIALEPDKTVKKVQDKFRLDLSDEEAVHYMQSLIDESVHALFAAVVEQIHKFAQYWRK
Chain of UniProt P31749 (whole entry, looked up): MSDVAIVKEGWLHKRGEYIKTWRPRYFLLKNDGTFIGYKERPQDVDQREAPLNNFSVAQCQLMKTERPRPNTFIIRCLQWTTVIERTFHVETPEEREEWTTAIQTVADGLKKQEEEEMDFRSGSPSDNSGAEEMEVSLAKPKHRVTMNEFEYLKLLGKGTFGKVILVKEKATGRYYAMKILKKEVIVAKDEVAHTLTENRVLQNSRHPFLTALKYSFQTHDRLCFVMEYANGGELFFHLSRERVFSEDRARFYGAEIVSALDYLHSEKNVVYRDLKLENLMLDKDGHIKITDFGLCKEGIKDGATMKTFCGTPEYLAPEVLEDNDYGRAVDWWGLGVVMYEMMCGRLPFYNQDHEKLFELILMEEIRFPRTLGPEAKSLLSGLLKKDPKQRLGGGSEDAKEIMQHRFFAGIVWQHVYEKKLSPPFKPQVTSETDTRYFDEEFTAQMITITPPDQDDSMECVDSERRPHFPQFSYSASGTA
Chain of UniProt Q00526 (whole entry, looked up): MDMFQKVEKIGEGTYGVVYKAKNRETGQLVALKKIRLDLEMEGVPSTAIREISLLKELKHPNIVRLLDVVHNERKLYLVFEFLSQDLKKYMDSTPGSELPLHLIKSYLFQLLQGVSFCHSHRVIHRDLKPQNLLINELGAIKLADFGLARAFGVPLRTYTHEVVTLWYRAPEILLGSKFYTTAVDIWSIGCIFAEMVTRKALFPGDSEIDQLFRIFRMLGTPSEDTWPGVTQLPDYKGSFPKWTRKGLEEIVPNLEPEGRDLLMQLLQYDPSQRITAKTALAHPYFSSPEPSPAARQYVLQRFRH
Chain of UniProt Q86UX6 (whole entry, looked up): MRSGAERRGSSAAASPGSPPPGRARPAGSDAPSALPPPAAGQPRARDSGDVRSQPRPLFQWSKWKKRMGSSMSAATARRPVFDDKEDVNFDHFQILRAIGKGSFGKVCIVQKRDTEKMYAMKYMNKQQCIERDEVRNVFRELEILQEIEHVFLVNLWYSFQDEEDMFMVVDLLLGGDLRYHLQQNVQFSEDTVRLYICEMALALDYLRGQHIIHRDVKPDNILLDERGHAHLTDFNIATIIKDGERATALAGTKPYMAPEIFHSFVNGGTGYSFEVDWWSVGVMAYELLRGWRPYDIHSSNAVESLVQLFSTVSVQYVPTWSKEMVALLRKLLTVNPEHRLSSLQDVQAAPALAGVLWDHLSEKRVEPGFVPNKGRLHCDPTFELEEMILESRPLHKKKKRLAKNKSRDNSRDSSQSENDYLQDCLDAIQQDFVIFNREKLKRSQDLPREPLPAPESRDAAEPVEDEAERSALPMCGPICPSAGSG
Chain of UniProt O95835 (whole entry, looked up): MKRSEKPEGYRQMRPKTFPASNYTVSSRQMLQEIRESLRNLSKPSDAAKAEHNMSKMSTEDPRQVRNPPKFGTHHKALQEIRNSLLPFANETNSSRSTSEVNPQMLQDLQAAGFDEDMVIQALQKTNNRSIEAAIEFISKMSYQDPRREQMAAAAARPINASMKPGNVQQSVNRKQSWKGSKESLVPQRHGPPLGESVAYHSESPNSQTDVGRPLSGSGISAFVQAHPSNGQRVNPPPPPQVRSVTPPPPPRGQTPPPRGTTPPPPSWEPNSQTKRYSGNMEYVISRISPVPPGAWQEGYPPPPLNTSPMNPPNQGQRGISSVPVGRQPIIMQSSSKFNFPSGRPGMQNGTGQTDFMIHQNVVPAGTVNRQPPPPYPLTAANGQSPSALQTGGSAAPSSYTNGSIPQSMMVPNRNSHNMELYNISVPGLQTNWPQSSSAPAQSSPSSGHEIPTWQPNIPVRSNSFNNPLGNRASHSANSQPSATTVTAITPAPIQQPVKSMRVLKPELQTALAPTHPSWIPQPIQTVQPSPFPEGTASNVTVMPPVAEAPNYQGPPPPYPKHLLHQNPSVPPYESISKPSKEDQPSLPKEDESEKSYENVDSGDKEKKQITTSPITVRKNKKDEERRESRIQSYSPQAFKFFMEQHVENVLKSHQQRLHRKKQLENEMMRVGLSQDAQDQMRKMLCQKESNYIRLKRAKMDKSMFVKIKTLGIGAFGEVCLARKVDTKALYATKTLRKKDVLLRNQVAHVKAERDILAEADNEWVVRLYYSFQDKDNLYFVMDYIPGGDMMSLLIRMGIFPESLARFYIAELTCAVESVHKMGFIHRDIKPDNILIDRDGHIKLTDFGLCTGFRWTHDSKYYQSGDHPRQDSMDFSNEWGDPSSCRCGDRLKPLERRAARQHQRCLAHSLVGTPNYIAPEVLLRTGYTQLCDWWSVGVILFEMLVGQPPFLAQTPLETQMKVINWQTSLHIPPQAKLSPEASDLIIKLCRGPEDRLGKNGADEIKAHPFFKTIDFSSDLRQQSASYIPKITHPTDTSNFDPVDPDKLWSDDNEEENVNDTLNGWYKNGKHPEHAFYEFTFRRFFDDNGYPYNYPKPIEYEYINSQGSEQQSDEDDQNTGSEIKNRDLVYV
Chain of UniProt Q96NX5 (whole entry, looked up): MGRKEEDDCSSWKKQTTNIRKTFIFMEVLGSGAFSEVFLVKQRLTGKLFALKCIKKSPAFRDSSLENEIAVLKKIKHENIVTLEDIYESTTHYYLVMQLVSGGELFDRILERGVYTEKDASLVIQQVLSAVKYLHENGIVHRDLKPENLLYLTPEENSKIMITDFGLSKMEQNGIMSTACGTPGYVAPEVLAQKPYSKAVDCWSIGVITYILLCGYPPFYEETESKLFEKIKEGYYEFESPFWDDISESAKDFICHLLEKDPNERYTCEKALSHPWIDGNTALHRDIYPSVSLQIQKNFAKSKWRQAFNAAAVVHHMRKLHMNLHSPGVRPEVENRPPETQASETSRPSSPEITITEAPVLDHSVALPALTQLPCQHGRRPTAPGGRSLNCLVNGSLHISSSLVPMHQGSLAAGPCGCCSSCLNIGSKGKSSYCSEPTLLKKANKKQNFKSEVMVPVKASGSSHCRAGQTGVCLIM
Chain of UniProt O15530 (whole entry, looked up): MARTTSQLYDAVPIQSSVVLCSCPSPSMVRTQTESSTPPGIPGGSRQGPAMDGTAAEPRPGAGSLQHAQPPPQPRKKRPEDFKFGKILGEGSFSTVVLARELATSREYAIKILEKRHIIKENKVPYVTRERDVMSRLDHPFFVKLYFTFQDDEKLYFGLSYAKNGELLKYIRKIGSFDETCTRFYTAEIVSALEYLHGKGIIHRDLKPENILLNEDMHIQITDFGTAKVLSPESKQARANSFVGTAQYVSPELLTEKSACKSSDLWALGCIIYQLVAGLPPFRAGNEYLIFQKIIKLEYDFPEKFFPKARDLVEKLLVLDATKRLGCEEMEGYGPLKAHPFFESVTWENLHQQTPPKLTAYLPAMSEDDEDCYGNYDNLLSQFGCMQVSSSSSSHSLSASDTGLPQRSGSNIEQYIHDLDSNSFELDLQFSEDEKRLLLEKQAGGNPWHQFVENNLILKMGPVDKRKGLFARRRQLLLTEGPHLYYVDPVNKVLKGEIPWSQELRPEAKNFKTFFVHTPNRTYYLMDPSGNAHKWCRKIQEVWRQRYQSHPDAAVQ

Block 1
SMILES: CNC(=O)c1ccc(-c2cnn3ccc(C(=O)N(C)c4ccc(Cl)c(C(=O)O)c4)cc23)cc1
For HTR1A (Homo sapiens, UniProt P08908); cell-free assay: IC50 read over 30 µM.
The IC50 was over 30 µM (JAK1 (Homo sapiens, UniProt P23458); enzyme activity, inhibitor).
AKT1 (Homo sapiens, UniProt P31749); enzyme activity, inhibitor — IC50: over 30 µM.
It gave over 30 µM for IC50 (IGF1R (Homo sapiens, UniProt P08069); enzyme activity, inhibitor).
For KIT (Homo sapiens, UniProt P10721); enzyme activity, inhibitor: IC50 read over 30 µM.
The IC50 was over 30 µM (SLC6A3 (Homo sapiens, UniProt Q01959); cell-free assay).
The IC50 was over 30 µM (MAPKAPK5 (Homo sapiens, UniProt Q8IW41); enzyme activity, inhibitor).
The IC50 was over 30 µM (JAK3 (Homo sapiens, UniProt P52333); enzyme activity, inhibitor).
MKNK2 (Homo sapiens, UniProt Q9HBH9); enzyme activity, inhibitor — IC50: over 30 µM.

Block 2
Target: ABI1, truncated, D143A, DHFR fusion (Arabidopsis thaliana, UniProt P49597)
Technique: DHFR PCA, dose-response
Medium: yeast
Setting: Hill fit, mean, not affinity
Added: (+)-ABA, dose series
Reading: lower = more sensitive
Starting sequence: PYL1, truncated, DHFR fusion (Arabidopsis thaliana, UniProt Q8VZS8); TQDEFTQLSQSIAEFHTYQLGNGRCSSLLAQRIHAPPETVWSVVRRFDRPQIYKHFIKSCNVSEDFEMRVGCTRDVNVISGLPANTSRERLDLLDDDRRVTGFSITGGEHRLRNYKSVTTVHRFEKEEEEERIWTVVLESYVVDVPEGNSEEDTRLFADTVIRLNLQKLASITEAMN
The ABA EC50 of `S42E` is reported as 2.97 µM.
For `R32K`, the ABA EC50 was 2.41 µM.
`H34E` gave an ABA EC50 of 5.27 µM.
With `A158M` the ABA EC50 was 16.9 µM.
`T73G` gave an ABA EC50 of 40 µM.
`V143Q` has an ABA EC50 of 79.5 µM.
`Q31V` gave an ABA EC50 of 16.1 µM.
The ABA EC50 of `A175S` is reported as 1.91 µM.

Block 3
Compound: N#CC1(c2ccccn2)CCN(Cc2cc(C(=O)O)c(=O)n3ccccc23)CC1
Tested at: 1 µM
For MAP2K3 (Homo sapiens, UniProt P46734); cell-free assay, competition with immobilised ligand: remaining binding read 73%.
CAMK2G (Homo sapiens, UniProt Q13555); cell-free assay, competition with immobilised ligand — remaining binding: 100%.
The remaining binding was 97% (PIK3C2G (Homo sapiens, UniProt O75747); cell-free assay, competition with immobilised ligand).
It gave 92% for remaining binding (RET (Homo sapiens, UniProt P07949, V804M); cell-free assay, competition with immobilised ligand).
CAMK1G (Homo sapiens, UniProt Q96NX5); cell-free assay, competition with immobilised ligand — remaining binding: 100%.
For Ribosomal protein S6 kinase alpha-2, C-terminal kinase domain (RPS6KA2, Homo sapiens, UniProt Q15349); cell-free assay, competition with immobilised ligand: remaining binding read 100%.
It gave 80% for remaining binding (MAP4K3 (Homo sapiens, UniProt Q8IVH8); cell-free assay, competition with immobilised ligand).
The remaining binding was 58% (CDK7 (Homo sapiens, UniProt P50613); cell-free assay, competition with immobilised ligand).
The remaining binding was 70% (PIK3C3 (Homo sapiens, UniProt Q8NEB9); cell-free assay, competition with immobilised ligand).
STK32C (Homo sapiens, UniProt Q86UX6); cell-free assay, competition with immobilised ligand — remaining binding: 72%.
The remaining binding was 100% (STK4 (Homo sapiens, UniProt Q13043); cell-free assay, competition with immobilised ligand).
The remaining binding was 89% (EPHA5 (Homo sapiens, UniProt P54756); cell-free assay, competition with immobilised ligand).
It gave 100% for remaining binding (LATS1 (Homo sapiens, UniProt O95835); cell-free assay, competition with immobilised ligand).
The remaining binding was 98% (Tyrosine-protein kinase ABL1, non-phosphorylated (ABL1, Homo sapiens, UniProt P00519); cell-free assay, competition with immobilised ligand).
The remaining binding was 100% (MYLK4 (Homo sapiens, UniProt Q86YV6); cell-free assay, competition with immobilised ligand).
For MET (Homo sapiens, UniProt P08581); cell-free assay, competition with immobilised ligand: remaining binding read 84%.
For CDK3 (Homo sapiens, UniProt Q00526); cell-free assay, competition with immobilised ligand: remaining binding read 99%.
PRKACA (Homo sapiens, UniProt P17612); cell-free assay, competition with immobilised ligand — remaining binding: 88%.
It gave 100% for remaining binding (CDC42BPG (Homo sapiens, UniProt Q6DT37); competition binding).
It gave 100% for remaining binding (DAPK1 (Homo sapiens, UniProt P53355); cell-free assay, competition with immobilised ligand).
For ULK1 (Homo sapiens, UniProt O75385); cell-free assay, competition with immobilised ligand: remaining binding read 76%.
It gave 100% for remaining binding (Myosin-IIIb (MYO3B, Homo sapiens, UniProt Q8WXR4); binding, competition with immobilised ligand).
For RIPK4 (Homo sapiens, UniProt P57078); cell-free assay, competition with immobilised ligand: remaining binding read 80%.
It gave 97% for remaining binding (PIKFYVE (Homo sapiens, UniProt Q9Y2I7); cell-free assay, competition with immobilised ligand).
It gave 100% for remaining binding (PDPK1 (Homo sapiens, UniProt O15530); cell-free assay, competition with immobilised ligand).

Block 4
Target: vanadate, free oxyanion
Technique: microfluidic competitive inhibition
Medium: in vitro, cell-free expressed
Tested at: not given
Setting: derived from inhibition constants, unchanged parent 676 nM
Reading: lower = stronger binding
Starting sequence: PafA, mature enzyme, eGFP fusion (Elizabethkingia meningoseptica, UniProt Q9KJX5); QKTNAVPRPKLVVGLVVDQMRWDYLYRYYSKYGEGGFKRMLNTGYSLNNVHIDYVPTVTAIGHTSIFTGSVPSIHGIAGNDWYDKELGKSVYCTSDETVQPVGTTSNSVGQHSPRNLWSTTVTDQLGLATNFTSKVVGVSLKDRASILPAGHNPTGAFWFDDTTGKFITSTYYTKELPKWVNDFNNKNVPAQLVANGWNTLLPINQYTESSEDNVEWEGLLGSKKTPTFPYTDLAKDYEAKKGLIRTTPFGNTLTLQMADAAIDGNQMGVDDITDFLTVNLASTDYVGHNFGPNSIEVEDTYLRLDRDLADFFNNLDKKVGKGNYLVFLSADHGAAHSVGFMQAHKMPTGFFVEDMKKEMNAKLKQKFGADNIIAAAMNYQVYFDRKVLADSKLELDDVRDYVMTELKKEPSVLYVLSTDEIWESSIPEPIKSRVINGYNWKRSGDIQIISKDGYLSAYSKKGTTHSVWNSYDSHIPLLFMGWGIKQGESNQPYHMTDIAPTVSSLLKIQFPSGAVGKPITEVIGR
`A370V` — result for “oxyanion analog dissociation constant”: 688 nM.
For `F384V`, “oxyanion analog dissociation constant” read 950 nM.
`Y231G` — result for “oxyanion analog dissociation constant”: 646 nM.
Under “oxyanion analog dissociation constant”, `L117G` is recorded as 472 nM.
`G340V` — result for “oxyanion analog dissociation constant”: 734 nM.
For `K242G`, “oxyanion analog dissociation constant” read 497 nM.
`L396G` — result for “oxyanion analog dissociation constant”: 558 nM.
`G463V` — result for “oxyanion analog dissociation constant”: 632 nM.
`F167G`: “oxyanion analog dissociation constant” 1.25 µM.
`T200G` — result for “oxyanion analog dissociation constant”: 813 nM.
For `K409G`, “oxyanion analog dissociation constant” read 687 nM.
For `T284G`, “oxyanion analog dissociation constant” read 774 nM.
`P348V`: “oxyanion analog dissociation constant” 597 nM.
`F160V`: “oxyanion analog dissociation constant” 510 nM.
Under “oxyanion analog dissociation constant”, `D355G` is recorded as 549 nM.
Under “oxyanion analog dissociation constant”, `E395V` is recorded as 629 nM.
For `F328V`, “oxyanion analog dissociation constant” read 1.58 µM.
Under “oxyanion analog dissociation constant”, `G76A` is recorded as 778 nM.
`Y286V` — result for “oxyanion analog dissociation constant”: 4.25 µM.
For `T200V`, “oxyanion analog dissociation constant” read 713 nM.
`L478V` — result for “oxyanion analog dissociation constant”: 1.15 µM.
For `H75V`, “oxyanion analog dissociation constant” read 658 nM.
`S106G`: “oxyanion analog dissociation constant” 1.03 µM.
Under “oxyanion analog dissociation constant”, `A5V` is recorded as 593 nM.
For `L193G`, “oxyanion analog dissociation constant” read 522 nM.

For quick reference, copied from above (block 3):
For Ribosomal protein S6 kinase alpha-2, C-terminal kinase domain (RPS6KA2, Homo sapiens, UniProt Q15349); cell-free assay, competition with immobilised ligand: remaining binding read 100%.
For RIPK4 (Homo sapiens, UniProt P57078); cell-free assay, competition with immobilised ligand: remaining binding read 80%.
For MET (Homo sapiens, UniProt P08581); cell-free assay, competition with immobilised ligand: remaining binding read 84%.
STK32C (Homo sapiens, UniProt Q86UX6); cell-free assay, competition with immobilised ligand — remaining binding: 72%.
CAMK2G (Homo sapiens, UniProt Q13555); cell-free assay, competition with immobilised ligand — remaining binding: 100%.
It gave 100% for remaining binding (Myosin-IIIb (MYO3B, Homo sapiens, UniProt Q8WXR4); binding, competition with immobilised ligand).
